Measurements collected from several papers.
A part holds a random share of what one study measured. Changes are numbered by the printed parent chain.

Study 1 — target: CCNA2, cyclin fold, Cln2 fusion (human); method: yeast growth competition, sequencing; sample: yeast; setting: strong parent motif; reference: not given; direction: higher = stronger binding
Starting sequence: PKMYT1 docking peptide (human); SFEPRNLLSLFED
| Variant | normalised enrichment score |
| --- | --- |
| D13M | 2.68 |
| S1A | 3.2 |
| E3R | 4.72 |
| P4C | 0.0208 |
| F2Q | 0.447 |
| F11T | -0.306 |
| P4D | -0.68 |
| N6T | -0.000852 |
| E12W | 1.33 |
| L8R | 0.166 |
| S1C | 3.28 |
| L8P | -0.75 |

Study 2 — method: protein-binding microarray; molecule type: double-stranded DNA, one strand shown; sample: in vitro; concentration: 2200 nM top; setting: 60-bp whole probe; together with: salmon DNA 0.4 mg/ml; reference: random background probes; direction: higher = stronger binding; shared flanks, not repeated: GCCTAGCAC … GTCTTGATTCGCTTGACGCTGCTG
Target: Interferon regulatory factor 7, full length, phosphomimetic (IRF7, Homo sapiens, UniProt Q92985, residues 1-503, S471D/S472D/S475D/S476D/S477D/S483D/S484D/S487D)
Sequence of UniProt Q92985 (whole entry, unmodified, looked up): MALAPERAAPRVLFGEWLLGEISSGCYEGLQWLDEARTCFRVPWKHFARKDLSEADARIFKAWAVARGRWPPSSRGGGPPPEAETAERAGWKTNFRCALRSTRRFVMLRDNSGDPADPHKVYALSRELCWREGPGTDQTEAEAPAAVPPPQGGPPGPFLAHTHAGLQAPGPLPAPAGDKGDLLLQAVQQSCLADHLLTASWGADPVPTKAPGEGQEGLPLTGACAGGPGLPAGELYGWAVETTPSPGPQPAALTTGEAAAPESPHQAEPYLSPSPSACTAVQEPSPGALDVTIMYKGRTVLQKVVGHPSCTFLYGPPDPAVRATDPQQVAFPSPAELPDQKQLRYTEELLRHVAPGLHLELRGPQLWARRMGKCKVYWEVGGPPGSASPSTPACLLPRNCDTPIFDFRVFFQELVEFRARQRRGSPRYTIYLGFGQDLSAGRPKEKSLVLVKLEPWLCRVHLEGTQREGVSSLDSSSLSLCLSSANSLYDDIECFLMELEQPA
| Oligonucleotide | fitted relative affinity [z-score] |
| --- | --- |
| GACGGACTGGATTTTCGGGACGTGCTA | 1.29 |
| TTACAACTGAGTATCGATTAGTGCTAG | 0.29 |
| GTGACTCTGAACCTTCAGCTCGTGCTA | 0.576 |
| GACGATATCGGGTATCGCGACGTGCTA | 0.139 |
| GACGGTTCCGTTTTCCTGACGTGCTAG | 3.96 |
| TTAGGTATCGGGACTGCGTTAGTGCTA | -0.261 |
| TGCCATATTTATCTGCAAAGGTGCTAG | 0.59 |
| TTAGGTATCGGTATCGGCTAGTGCTAG | 0.455 |
| TTTGGAGTCATTCTCAACCCGTGCTAG | 0.24 |
| TTAGTTTTCGGACTGGGTTAGTGCTAG | 3.3 |
| TCAAGTTTATTTATTTTACTGTGCTAG | 0.174 |
| TCATGGTTCTTGCTTGGTACTGTGCTA | 0.998 |
| GACGGACTGGGTCTTGGGACGTGCTAG | -0.796 |
| GACGGTTTCCGTATCGGGACGTGCTAG | 2.94 |
| TTAGATCTCATTATCGATTAGTGCTAG | 0.607 |
| TTAGAACTGAGTTTCGGTTAGTGCTAG | 4.84 |
| TTATGTTTCCTTTCCCTTTAGTGCTAG | 5.86 |
| GACGGTCTCCTTATCCGGACGTGCTAG | 0.62 |
| GACGCTATCGACTTTCGGGACGTGCTA | 3.45 |
| GACGGACTAGGGACTGGGGACGTGCTA | -0.937 |
| TCACTACTGTATTTGGCACTGTGCTAG | 0.952 |
| CTAGGTATCCTTTTCCTTTAGTGCTAG | 1.85 |
| TCAATCGTAAGCAAAAAACTGTGCTAG | -0.402 |

Study 3 — method: RNA Bind-n-Seq; molecule type: RNA; sample: in vitro; concentration: 365 nM; reference: no-protein control; direction: higher = stronger binding
Target: RNA binding protein fox-1 homolog 2, RRM domain, GST-SBP tag (RBFOX2, Homo sapiens, UniProt O43251-10, residues 100-194)
Setting: natural RNA segment, single round, ends assumed
Shared flanks, not repeated: GGGAGUUCUACAGUCCGACGAUC … UGGAAUUCUCGGGUGCCAA
Construct (chain): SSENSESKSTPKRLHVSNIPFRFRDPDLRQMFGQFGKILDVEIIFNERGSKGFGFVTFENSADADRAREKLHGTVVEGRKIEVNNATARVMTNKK
| Oligonucleotide | RBNS enrichment (R) |
| --- | --- |
| UUGGAAUGGGUAAAGUACAAAUGUUAAUGCAACAUAGUACAGUUGUAUUUGUCCUUCAUAUUCAGGAUGUGAUAUUUACAAAAUGCAGAACAGUUUAAACUUGUUAAGUC | 0.476 |
| CUCAUCACUGAGGAUCAUGAAACACAGUAGGGGUGUGUGGAGCCUUGGGACGUGAGCAGUCUCCAGAAAGAGGCCUGAGAGAGAGCAUGAACACUUAUCUUUGUGAGUGA | 21.8 |
| GGAUGAAGCAUAGCAGGAAGACCGAGGAGGAGAGCCCUGCAGCAGCUUCCCGCCAGUUUCUCUCAGUUUGCCAAAGAGACCAUUGAAUGUUUUUGAAACCAAAGAGCACA | 0.869 |
| UCGCUGUAAAGAAAGGCCAUGCUUUUGUGUUAGUGGAGACAGUCUAGAGUUGCUCAGAAUCUUGUAGGGUUUUCUGAUCUGGUUACCUCUAGCUGCCAUGUGGGGUCCAC | 0.474 |
| CUAUUUCAAGUAGGGAAACCCAGGUGGACUUUGCUCAAGAUGGUUCCCAAAAUGAGAGGCACCAACUUCAAGAAUUGCCUCCUAGGGGGAGGCACGAGCCAGAGACCAGG | 0.271 |
| CCCGGUCCCCUUUUCUUUAUUAUCGAAGAUAUUGUUUAAAAGAAAGAAAAAGUAGGUCCCAAUAAUAUAUGUGCUAUUCAAAAAAUGUGAUCAUUUAGGACAUUAUCACA | 0.638 |
| ACUAGCUGAGCCGAUUCCUUCCUGUGAGCACACUGUAAGCUUUCAAGUUCUCUGGGCAGGAAUUACAGCACCUGUCCCCUGCAAUGGCCCUGCUGUGUGAUGCUCAUCGC | 0.3 |
| UCGCUGUCCUGCUGUGUGAAUUCCCAGGUUGGCCUGGUGGCCAUGUCGCCUGCCCCCAGCACUCCUCUGUCUCUGCUCUUGCCUGCACCCUUCCUCCUCCUUUGCCUAGG | 1.27 |
| AGAUCAUUUCCCAUGCUUGCUUUGAUUUGGUCCUCAAUAAAUUAAAAUGAUCCACACUUUCACACUGCCACUUCUGACCUUCACUGCCAUCUUCAGACGGUUCCUUUUGA | 3.91 |
| UUGAGAACCGCUGCUCUCAUAGACUGCUCCUCCAAGGGGAAGCAGUGUGGAACAGCAGAGAAAGUCCCGUCCCUAUCUCUGACUGUGCAGUGAGUGUGGCCUAGGAACAG | 0.364 |
| CAUUGGGUGAUCAUUCACCAGUACAUUCUCAGUUUUUCUUAAUAUAUAGCAUUUAUGGUAAUCAUAUUAGACUUCUGUUUUCAAUCUCGUAUAGAAGUCUUCAUGAAAUG | 0.63 |
| CAAAUGCAAUGGCUCAGAACAAUUAAGCACUGCCUUUCGUCUUUCUUUGUAACUCACUUGGUAAAAGCAAAUGUCUUGUCUCCUUCAGUGGUUCUUUGAAGCUUAGUGAG | 0.518 |

Study 4 — method: protein binding microarray; molecule type: double-stranded DNA, one strand shown; sample: in vitro; concentration: not given; reference: not given; direction: higher = stronger binding
Target: Histone acetyltransferase KAT6A, winged helix 1, GST fusion (KAT6A, Homo sapiens, UniProt Q92794, residues 1-85)
Setting: 8-mer, flanks averaged, mean of 2 arrays, mostly near background
Target sequence (chain): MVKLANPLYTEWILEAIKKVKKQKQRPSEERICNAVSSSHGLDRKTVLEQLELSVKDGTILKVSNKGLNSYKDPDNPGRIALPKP
| Oligonucleotide | E-score |
| --- | --- |
| GACATGAA | -0.126 |
| ACGCCGCT | 0.385 |
| CCGCATCG | 0.313 |
| CAGACATC | -0.257 |
| TAGCGCAA | 0.254 |
| AATCATTC | -0.106 |
| CAGGCAGG | -0.28 |
| CAATCTGC | -0.0389 |
| TCAGCCCA | -0.163 |
| CAGTCTGG | -0.238 |
| CATGGCGG | 0.242 |
| AATTGAGT | -0.153 |
| TTCGGCAA | -0.0176 |
| TCATGTAA | 0.0131 |
| ACCAGGTA | -0.221 |
| AGCAGGTG | 0.00747 |
| CCTTTACA | -0.207 |
| AGACCCCA | -0.0918 |
| ATGTCGCG | 0.284 |
| GTTTGGAA | -0.133 |
| ACAGAAGG | -0.103 |
| AATCGCTC | 0.0271 |
| AGAGAAAT | -0.00451 |

A few entries again (study 2):
| Oligonucleotide | fitted relative affinity [z-score] |
| --- | --- |
| GTGACTCTGAACCTTCAGCTCGTGCTA | 0.576 |
| GACGATATCGGGTATCGCGACGTGCTA | 0.139 |
| GACGGTTCCGTTTTCCTGACGTGCTAG | 3.96 |
| TTAGGTATCGGGACTGCGTTAGTGCTA | -0.261 |
| TGCCATATTTATCTGCAAAGGTGCTAG | 0.59 |
| TTAGGTATCGGTATCGGCTAGTGCTAG | 0.455 |
| TTTGGAGTCATTCTCAACCCGTGCTAG | 0.24 |
| TTAGTTTTCGGACTGGGTTAGTGCTAG | 3.3 |
